Measurements of several laboratories.
Numbers after ± are the reported error.

Under degradation, `COC(=O)CC1N=C(c2ccc(Cl)cc2)c2c(sc(C(=O)NCCCCCNc3cccc4c3C(=O)N(C3CCC(=O)NC3=O)C4=O)c2C)-n2c(C)nnc21` (stereo not drawn) is recorded as “inactive” (BRD3 (Homo sapiens, UniProt Q15059); degrader, western blot; HEK-293T; 5 h).
With `CNc1ccccc1C(=O)O[C@H]1C[C@H](n2cnc3c(N)ncnc32)O[C@@H]1COP(=O)(O)OP(=O)(O)O` the FRET efficiency was 0.87 ± 0.02 (Unconventional myosin-Va (Gallus gallus, UniProt Q02440, D297C/G292C/I296C/S293C/V295G); stopped-flow FRET; compound complex; 15 °C, with: 2 mM MgCl2).
`COc1cccc(C(=O)N[C@H]2[C@@H](O)[C@@H](CO)O[C@@H](S[C@@H]3O[C@H](CO)[C@H](O)[C@H](NC(=O)c4cccc(OC)c4)[C@H]3OS(=O)(=O)O)[C@@H]2O)c1` has a –TΔS of 3.73 ± 0.0956 kcal/mol (Galectin-3 (LGALS3, Homo sapiens, UniProt P17931); ITC).
`CC(C)C[C@H](NC(=O)[C@H](Cc1ccc(O)cc1)NC(=O)[C@@H](CCCNC(=N)N)NC(=O)[C@@H](CO)NC(=O)[C@H](Cc1ccccc1)NC(=O)[C@H](CC1CCCCC1)NC(=O)[C@@H](N)CC(=O)O)C(=O)N[C@@H](Cc1c[nH]c2ccccc12)C(=O)N[C@@H](CO)C(=O)O` gave a kon of 620000 M⁻¹ s⁻¹ (Urokinase plasminogen activator surface receptor (Homo sapiens, UniProt Q03405); binding, SPR).
The maximal response of `N#Cc1cnc(Nc2nc3ccccc3o2)nc1-c1ccsc1` is reported as 13 ± 5% (Grm5 (Rattus norvegicus, UniProt P31424); calcium mobilization, negative allosteric modulator; with: glutamate EC80; relative to: maximal glutamate response).
`Cc1csc(CCCNc2nc3c(c(=O)[nH]2)[n+](C)cn3C2OC(COP(=O)(O)OP(=O)([O-])OP(=O)(O)OCC3OC(n4cnc5c(=O)[nH]c(N)nc54)C(O)C3O)C(O)C2O)n1` (stereo not drawn) has a capping efficiency of 75.9 ± 2.2% (DNA-directed RNA polymerase (Enterobacteria phage SP6, UniProt P06221); in vitro transcription, densitometry; short RNA).
Under ATPase activity, `O=C(O)c1ccc(/C=C2\SC(=S)N(Cc3cccc(C(F)(F)F)c3)C2=O)cc1` is recorded as “no effect” (NLR family CARD domain-containing protein 4 (Homo sapiens, UniProt Q9NPP4); inhibitor; 1 µM).
`[123I]c1ccc2nc(-c3ccc(-n4ccnn4)nc3)cn2c1` has an SUVR of 1.23 ± 0.26 (Amyloid-beta precursor protein, amyloid-beta (APP, Homo sapiens, UniProt P05067); SPECT; Alzheimer's disease patients, Parietal cortex; 150 to 240 min; relative to: cerebellum).
Under enzyme activity, `Cc1ccc(C)c2sc(NC(=O)C3CCN(S(=O)(=O)c4ccc(F)cc4)CC3)nc12` is recorded as “increased” (Napepld (Mus musculus, UniProt Q8BH82); activator; RAW264.7; concentration not given, with: PED-A1).
For `O=C(O)C1OC(OC2C(C(=O)O)OC(OC3C(C(=O)O)OC(OC4C(C(=O)O)OC(OC5C(C(=O)O)OC(OC6C(C(=O)O)OC(O)C(O)C6O)C(O)C5O)C(O)C4O)C(O)C3O)C(O)C2O)C(O)C(O)C1O` (stereo not drawn), the binding enthalpy was -6.931 ± 0.0239 kcal/mol (Beta-lactoglobulin (LGB, Bos taurus, UniProt P02754, A134V/G80D); isothermal titration calorimetry; 50 mM KH2PO4; concentration not given, pH 4.00, 37 °C).
`CC(=O)N/C(N)=N/C(=N\S(=O)(=O)c1ccc(C(F)(F)F)cc1)N1C[C@H](c2ccccc2)C(c2ccc(Cl)cc2)=N1` — result for potency change: “no effect” (CNR1 (Homo sapiens, UniProt P21554, S123A); G protein signalling; concentration not given, S123A mutant; relative to: wild type).
For `Cc1ncsc1-c1ccc([C@H](C)NC(=O)[C@@H]2C[C@@H](O)CN2C(=O)[C@@H](NC(=O)CN2CCN(CC3CCN(CC(=O)N4CCN(c5ncc(-c6cc(NC(=O)c7ccc(F)cc7C(F)(F)F)c(N7C[C@@H](C)N(C)[C@@H](C)C7)cc6F)cn5)CC4)CC3)CC2)C(C)(C)C)cc1`, the degradation was 35% (WD repeat protein WDS (Spodoptera frugiperda, UniProt A0A2H1VC02); degrader, targeted MS; Spodoptera frugiperda L5 larvae; injection, 0.1 nmol/mg).

Repeated from above:
Under degradation, `COC(=O)CC1N=C(c2ccc(Cl)cc2)c2c(sc(C(=O)NCCCCCNc3cccc4c3C(=O)N(C3CCC(=O)NC3=O)C4=O)c2C)-n2c(C)nnc21` (stereo not drawn) is recorded as “inactive” (BRD3 (Homo sapiens, UniProt Q15059); degrader, western blot; HEK-293T; 5 h).
The maximal response of `N#Cc1cnc(Nc2nc3ccccc3o2)nc1-c1ccsc1` is reported as 13 ± 5% (Grm5 (Rattus norvegicus, UniProt P31424); calcium mobilization, negative allosteric modulator; with: glutamate EC80; relative to: maximal glutamate response).
